Measured values gathered from unrelated publications.
Each numbered part is a random draw from the data of one study; scales do not carry over between parts.

Series 1
Target: Interferon regulatory factor 7, full length, phosphomimetic (IRF7, Homo sapiens, UniProt Q92985, residues 1-503, S101K/S471D/S472D/S475D/S476D/S477D/S483D/S484D/S487D)
Technique: protein-binding microarray
Form: double-stranded DNA, one strand shown
Medium: in vitro
Tested at: 250 nM
Notes: 60-bp whole probe
Together with: salmon DNA 0.4 mg/ml
Reference: random background probes
Direction: higher = stronger binding
Quantity: log fluorescence
All sequences stand within: GCCTAGCAC … GTCTTGATTCGCTTGACGCTGCTG
Construct (chain): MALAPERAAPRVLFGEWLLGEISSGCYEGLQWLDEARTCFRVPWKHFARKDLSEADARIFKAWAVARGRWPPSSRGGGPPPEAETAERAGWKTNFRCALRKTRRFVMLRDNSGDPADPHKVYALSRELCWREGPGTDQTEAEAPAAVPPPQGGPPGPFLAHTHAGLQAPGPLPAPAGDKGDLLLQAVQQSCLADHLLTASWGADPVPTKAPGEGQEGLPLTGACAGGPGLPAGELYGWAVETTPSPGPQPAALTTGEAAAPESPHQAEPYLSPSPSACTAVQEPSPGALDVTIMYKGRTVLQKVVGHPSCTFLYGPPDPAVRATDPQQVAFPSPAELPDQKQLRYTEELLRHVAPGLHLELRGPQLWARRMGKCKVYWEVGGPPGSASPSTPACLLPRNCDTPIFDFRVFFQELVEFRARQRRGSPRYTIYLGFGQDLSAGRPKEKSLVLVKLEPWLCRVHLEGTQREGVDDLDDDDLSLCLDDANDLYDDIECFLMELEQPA
GACCGACTGGGGTATCGGGACGTGCTA: -0.235 z-score
TTAGGACTGGACTTTCGGTAAGTGCTA: -0.109 z-score
GACGATATCGGCACTGGAGACGTGCTA: -0.659 z-score
TCAGAACTGAGTCTCGATTAGTGCTAG: 1.32 z-score
GTCACATTGTGCAATCTTAATGTGCTA: 0.58 z-score
TTAGGTATCGGTATCGGTTTGTGCTAG: 5.7 z-score
GACTAACTGAGACTGGAGACGTGCTAG: -0.0212 z-score
GGTCCTCTAGGAATGTAACTGTGCTAG: 0.033 z-score
TTAGGACTGGGGACGGGGTTAGTGCTA: 0.643 z-score
TTAGCACTGGGGTATCGGTTAGTGCTA: -0.116 z-score
TTAGGTATCGAGACTGGGTTAGTGCTA: 0.125 z-score
TCAAGTTTTTATTTTCTACTGTGCTAG: 1.23 z-score
GTCGATATCGGGTATCGAGACGTGCTA: 0.626 z-score
GTGATCCGTCCGCCTCAGCCGTGCTAG: 0.279 z-score
GAAGATATCAGTCTCGAGACGTGCTAG: 0.266 z-score
TTAGAAGTGAGACTGGATTAGTGCTAG: -0.177 z-score
TTATATTCCAGTTTCGATTAGTGCTAG: 9.74 z-score
CTTTACATGGGTTTTCAGCTGGTGCTA: 0.158 z-score
TTGGATTTCAGTTCCGATTAGTGCTAG: 1.3 z-score
TTAGATTACGGGTATCGATTAGTGCTA: 0.952 z-score
TTCGGTTTCGGTCTCGGTTAGTGCTAG: 9.32 z-score
GTAGGACTGGGGTTTCGGTTAGTGCTA: 5.02 z-score

Series 2
Target: RNA binding protein fox-1 homolog 2, RRM domain, GST-SBP tag (RBFOX2, Homo sapiens, UniProt O43251-10, residues 100-194)
Technique: RNA Bind-n-Seq
Form: RNA
Medium: in vitro
Tested at: 365 nM
Notes: natural RNA segment, single round, ends assumed
Reference: no-protein control
Direction: higher = stronger binding
Quantity: RBNS enrichment (R)
Target sequence (chain): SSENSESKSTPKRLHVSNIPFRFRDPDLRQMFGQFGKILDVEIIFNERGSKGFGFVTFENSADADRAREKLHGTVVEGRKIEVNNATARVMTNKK
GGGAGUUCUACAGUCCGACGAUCAGCCACACACAGCUUGCUGCUGUCGUUCUAGCCUUGCCAGUGCACUGUAGAUGCUGGCCUGUCACUCUAUACCUCUCGCUUUAGUUAACCGGCAUGGAUGUGACCGGAAUUGGAAUUCUCGGGUGCCAA: 1.18
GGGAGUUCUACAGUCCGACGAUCUUGCUGACUAGGGCUUGGGCUAGAAGAGAAGAGCUGGAUUACUCGCUGUUUCCUGCACUUAAGCCUUGGCAGGAGCCAAGGUCUAUGGUUUUUUGAGAUGAAGCAUUUGUUGGAAUUCUCGGGUGCCAA: 1.67
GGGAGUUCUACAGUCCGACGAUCCGACUGAUAGUGUGUUCUUUCCGGGAUCACAAACAUUAACAAAAAAGUUAACUUAUGUGACUUGGCAGUUAUUCUAUACCAUUUCCUGUCCAUUAAAAUUUUUAAAGGAAUGGAAUUCUCGGGUGCCAA: 0.266
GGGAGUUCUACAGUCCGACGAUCUUGUAAUGCCAGCAUUCCUCUUCCCCAUUUCCAGCUGUCACUCCUUCAUUAAACUGCUGAGUCAUUCCUUCCUUUGUCCCUUGGUUGUUUUUCUGUCUGUGGGAAAGUGUUGGAAUUCUCGGGUGCCAA: 0.569
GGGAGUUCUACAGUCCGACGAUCCGCUAUAGCUUUCUGUUGGCAAAUUUUCUCAAAAGCACUCUCUUUAAUCAGAUUAACUUCUUAAACUGCUUAAUUCUCAUCGCUUCUUAAAACUAGGGUGGUUUGCAGGUUGGAAUUCUCGGGUGCCAA: 0.412
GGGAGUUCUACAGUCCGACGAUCUUAUCUGGAGCCCACAUAGUGUGGAACAAAAAGUCACCUAGAAAGCAUCCUUGGUCAUCAUUGUCUCCUUCCCACCUGGCCCAGAGAUGCUUAAAUCCAAGUUGUUUCUCUGGAAUUCUCGGGUGCCAA: 0.255
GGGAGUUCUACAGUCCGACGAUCCAGGAGGGGUUUGCUCUGAAUUUGUAAACAAGUCUUCCUCGUCCUCAUGCCCCCACCCCUCUGCUGCCUCCUGCCACCAGCAUCCAUGGCCCCAUGGACACUUUUUUAAAUGGAAUUCUCGGGUGCCAA: 0.61
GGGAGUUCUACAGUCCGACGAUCGUUUACUCUAUCGCAUUUCUGUAACAUGAAAUGCAUGCCCUUCUUCAGGGGAAGACUGUGGUCAAGUUAAAAAAAAAAAACAAUAUUAAACAACAUGAAACUGCAGUCUGUGGAAUUCUCGGGUGCCAA: 0.386
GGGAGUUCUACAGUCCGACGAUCACAGCGCUGGUAUGAGGAGGAGGAACCCCAGCUGCGGUGUGGUCCUGUGCACUACAGUCCAGAGGAAGGUAUCCACUGUGCAGCUGAAACAGGAGGCCACAAACAACCUAUGGAAUUCUCGGGUGCCAA: 0.263
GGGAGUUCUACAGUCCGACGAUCAAUACCAUUUGAAAUGGCAAGUCUUGGCUUAACGCCUGUUUGUAUGCCCAGCAUUCAGCUGUUUUACUCAAAGCUAGGCAUGUCAUAGUAAUUGUCUUUUCAGAUGGAAAUGGAAUUCUCGGGUGCCAA: 0.519
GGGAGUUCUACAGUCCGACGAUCGAGACACUUUAGGAAGAUAAACUGAGCUUGAUCCUCAUCAUAUAGCCAGUUCCAUCACUCAGGUAGUGCCUGAAUCAACCUUCAGAGCCUGAUUAGUCACAUAUCAUUGGUGGAAUUCUCGGGUGCCAA: 0.301
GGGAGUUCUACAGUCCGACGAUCUUGGCCAUGAUCAACAACAUGCAGCAUGAUGGUGCGUGCACCGUGCGGUCCGUGCACCAUGCCGCCUGUGACCUGCAUCUGCUCCAAGCAGAGACUUUGGCUUUUUGUUUUGGAAUUCUCGGGUGCCAA: 0.473

Series 3
Target: Prothrombin, mature alpha-thrombin (F2, Homo sapiens, UniProt P00734)
Technique: aptamer microarray, sandwich
Form: DNA with 2'F-ANA
Medium: in vitro
Tested at: 200 nM
Notes: whole 15-mer aptamer, many near background
Together with: Cy3 exosite-II aptamer, 400 nM
Direction: higher = stronger binding
Quantity: mean fluorescence intensity
Sequence: GGTTGGTGTGGTTGG
2'F-ANA at 2 3 4 7 8 14: 413 a.u.
2'F-ANA at 2 6 7 8 10 12: 180 a.u.
2'F-ANA at 1 3 5 11 14: 41.7 a.u.
2'F-ANA at 1 2 5 9 10 11 12 14 15: 46.5 a.u.
2'F-ANA at 1 2 4 6 7 10 12 14 15: 46.9 a.u.
2'F-ANA at 2 5 8 10 12 15: 47.6 a.u.
2'F-ANA at 1 2 4 5 11 15: 53.3 a.u.
2'F-ANA at 1 4 6 10 13: 47.2 a.u.
2'F-ANA at 5 7 8 9 13 15: 59.2 a.u.
2'F-ANA at 1 2 4 5 6 12 13 15: 70.8 a.u.
2'F-ANA at 2 4 10 11 15: 137 a.u.
2'F-ANA at 1 11 13 14 15: 52.5 a.u.
2'F-ANA at 6 7 11 12 13: 598 a.u.
2'F-ANA at 1 4 8 9 14 15: 61.4 a.u.
2'F-ANA at 3 5 8 11 15: 117 a.u.
2'F-ANA at 1 2 4 7 8 10 12 13: 54.2 a.u.
2'F-ANA at 2 3 4 5 8 9 14: 50.5 a.u.
2'F-ANA at 2 7 9 11 14: 141 a.u.
2'F-ANA at 1 2 3 4 7 8 11 12: 391 a.u.
2'F-ANA at 2 4 5 6 8 11 12 13 15: 72.4 a.u.
2'F-ANA at 1 2 6 10 12 13 15: 66.7 a.u.
2'F-ANA at 1 2 4 5 6 7 8 13 15: 56.7 a.u.
2'F-ANA at 2 3 4 9 10 12 13 14 15: 203 a.u.
2'F-ANA at 1 3 5 6 7 8 11 12 14 15: 54.1 a.u.
2'F-ANA at 2 3 5 6 7 8 13 15: 80.3 a.u.

Series 4
Target: Phosphate system positive regulatory protein PHO4, full length, GST-tagged (PHO4, Saccharomyces cerevisiae, UniProt P07270, residues 1-312)
Technique: competition protein-binding microarray
Form: double-stranded DNA, one strand shown
Medium: in vitro
Tested at: 2 µM
Notes: whole 60-bp probe, lowest competitor level
Together with: Cbf1 competitor, 0.05 µM
Direction: higher = stronger binding
Quantity: fluorescence intensity
Residues (chain): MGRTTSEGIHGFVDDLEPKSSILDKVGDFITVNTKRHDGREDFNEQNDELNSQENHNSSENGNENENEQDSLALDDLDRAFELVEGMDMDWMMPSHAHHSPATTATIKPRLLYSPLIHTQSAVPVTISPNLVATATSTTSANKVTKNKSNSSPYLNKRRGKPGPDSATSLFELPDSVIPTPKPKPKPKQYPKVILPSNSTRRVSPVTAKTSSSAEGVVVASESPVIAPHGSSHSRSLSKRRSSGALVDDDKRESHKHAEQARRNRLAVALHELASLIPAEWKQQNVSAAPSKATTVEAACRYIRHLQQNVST
AGGATTTTCAACCATCATGTGACAGTCGAAGAACGCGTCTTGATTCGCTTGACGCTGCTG: 7040 a.u.
AAAGCGGTAATTTGTGGGGTGGGTGCAGATATCTATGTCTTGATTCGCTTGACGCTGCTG: 4810 a.u.
CATACCCAACCTTGTCACACAACTTAAGATATTTGTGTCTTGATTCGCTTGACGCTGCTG: 4380 a.u.
AAGATATCTTTTTGTCATGTGATGGTACATCGTTTGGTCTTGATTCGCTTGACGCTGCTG: 6560 a.u.
GAGCAATCATACCGTCACGTTCCATCTCACCGAATCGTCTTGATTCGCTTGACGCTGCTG: 12300 a.u.
CGTCCTAGTGATTGGCAAGTGGGTGCCATGAGGAAGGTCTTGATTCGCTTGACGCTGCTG: 6810 a.u.
CCGCTGTTTTATTAGCACGTGACGGATTGAAACGACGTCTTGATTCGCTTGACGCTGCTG: 17500 a.u.
GTCTTGTCTCATTTTCACGTGGCATTCCCCACTTCAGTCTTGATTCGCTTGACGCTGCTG: 13700 a.u.
AAGCTAAGCTCGAAGGACGTGCTAAGACATACGAATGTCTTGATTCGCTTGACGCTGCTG: 7350 a.u.
TTGTTTCTAGACCACCACGTGTGGATTGCAAAACAAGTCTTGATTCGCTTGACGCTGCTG: 15700 a.u.
CATATGGTATGATTGCACGTGGGACTCTAGGGGAAGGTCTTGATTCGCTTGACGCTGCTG: 19000 a.u.
GTTGAGCGAACGCGACTCGTGGGACGGCCACTTCGCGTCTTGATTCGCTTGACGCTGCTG: 8820 a.u.
CAACACCCTCCAGAGACCGTGCCGAAGTTGTTCGAGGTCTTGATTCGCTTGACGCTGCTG: 9710 a.u.
TTTCGATCTTCCCATCACGCATAGGGTTTTGAGCTTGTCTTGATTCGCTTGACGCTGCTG: 5710 a.u.
TACTATTATTAGACTTCATTACTGAGTTTATTAGTTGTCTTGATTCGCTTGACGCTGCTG: 3330 a.u.
CGGGGTTAAGTTTGATCGGTGGGTGGCTTGCAGCAGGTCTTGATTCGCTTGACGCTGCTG: 4250 a.u.
CGTCCTAGTGATTGCTACGTGGGTGCCATGAGGAAGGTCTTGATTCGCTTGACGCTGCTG: 9590 a.u.
GGTAAATCACCTATAGACGTGCGATGCAATAACCCTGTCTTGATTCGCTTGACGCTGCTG: 5840 a.u.
GAAGATAGCGGATCGCACGATGGCTCTAACGTTAGAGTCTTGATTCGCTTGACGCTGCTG: 8690 a.u.

Excerpt of the above (series 4):
CGTCCTAGTGATTGCTACGTGGGTGCCATGAGGAAGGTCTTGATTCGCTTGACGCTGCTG: 9590 a.u.
CGGGGTTAAGTTTGATCGGTGGGTGGCTTGCAGCAGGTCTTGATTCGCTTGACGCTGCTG: 4250 a.u.
GAAGATAGCGGATCGCACGATGGCTCTAACGTTAGAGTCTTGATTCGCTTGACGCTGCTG: 8690 a.u.
GAGCAATCATACCGTCACGTTCCATCTCACCGAATCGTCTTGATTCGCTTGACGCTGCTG: 12300 a.u.
GTTGAGCGAACGCGACTCGTGGGACGGCCACTTCGCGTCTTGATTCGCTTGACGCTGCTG: 8820 a.u.
